# Published values from different studies.
# Each line is one published result; not all experiments were run side by side. ± marks the error that the study gave.
technique,sample,concentration,time,temperature,notes,measured concentration [ng/mL],Structure (SMILES)
LC-MS/MS,extract in autosampler,2 ng/mL,24 h,4 °C,,2.1 ± 0.2,COC(=O)C(c1ccccc1Cl)N1CCC(SCC(=O)c2cccc(OC)c2)C(=CC(=O)O)C1 (stereo not drawn)
,dog plasma,40 ng/mL nominal,,,three freeze-thaw cycles at -20 °C,40.8,Cc1[nH]c(/C=C2\C(=O)Nc3ccc(F)cc32)c(C)c1NC(=O)CCN1CCN(C)CC1
LC-MS/MS,human plasma,2 ng/mL spiked,45 days,-80 °C,,2 ± 0.1,COC(=O)C(c1ccccc1Cl)N1CCC2SC(=O)C=C2C1 (stereo not drawn)
,extracted rat plasma,125.00 ng/mL,8 h,10 °C,"autosampler stability, mid QC",112 ± 5.6,C[N+](C)(C)CC(CC(=O)[O-])OC(=O)CCC(=O)Nc1ccn([C@@H]2O[C@H](CO)[C@@H](O)C2(F)F)c(=O)n1 (stereo partly drawn)
short-term stability,rat plasma,,8 h,room temperature,low QC level,7.07 ± 1.76,COc1ccc(-c2cc(=O)c3c(O)cc(O[C@@H]4O[C@H](CO[C@@H]5O[C@@H](C)[C@H](O)[C@@H](O)[C@H]5O)[C@@H](O)[C@H](O)[C@H]4O)cc3o2)cc1
,rat plasma,31.25 ng/mL,7 days,-80 °C,long-term storage,30 ± 0.69,COc1ccc([C@@H]2CC(=O)c3c(O)cc(O[C@@H]4O[C@H](CO[C@@H]5O[C@@H](C)[C@H](O)[C@@H](O)[C@H]5O)[C@@H](O)[C@H](O)[C@H]4O)cc3O2)cc1O
,rat plasma,250 ng/mL spiked,,,three freeze-thaw cycles,257,COc1ccnc(C[S+]([O-])c2nc3cc(-n4cccc4)ccc3[nH]2)c1C (stereo not drawn)
,rat whole blood extract,0.2 µg/L,30 days,-20 °C,long-term storage,0.217,Oc1ccc2ccccc2c1/N=N/c1ccccc1
,rat plasma,400 ng/mL,101 d,-80 °C,long-term storage stability,402 ± 19,"CNC(=O)N[C@]1(C)CCC[C@@]2(C)C3CC[C@@]4(C)C[C@]3(CCC21)CC4=O (single isomer, unassigned)"

# Some of these lines once more:
technique,sample,concentration,time,temperature,notes,measured concentration [ng/mL],Structure (SMILES)
,extracted rat plasma,125.00 ng/mL,8 h,10 °C,"autosampler stability, mid QC",112 ± 5.6,C[N+](C)(C)CC(CC(=O)[O-])OC(=O)CCC(=O)Nc1ccn([C@@H]2O[C@H](CO)[C@@H](O)C2(F)F)c(=O)n1 (stereo partly drawn)
